Measured values gathered from unrelated publications.
Each numbered part is a random draw from the data of one study; scales do not carry over between parts. Substitutions count along the parent as printed.

Study 1 — target: JUN, bZIP domain (human); technique: DHFR protein complementation; sample: yeast; baseline: wild-type JUN-FOS pair; reading: higher = stronger binding
Setting: single substitutions, most at no-binding floor
Parent: JUN, bZIP domain (human); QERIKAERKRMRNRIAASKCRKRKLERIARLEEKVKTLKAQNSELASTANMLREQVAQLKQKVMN; partner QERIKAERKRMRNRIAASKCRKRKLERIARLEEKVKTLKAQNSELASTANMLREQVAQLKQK
Change | binding fitness
L52W | -1.06 natural log
A57Y | -0.45 natural log
K34F | -0.473 natural log
R53C | -0.994 natural log
N42M | -1.2 natural log
K36F | -0.762 natural log
A57L | -0.514 natural log
M51H | -0.235 natural log
I28R | -0.865 natural log
R53V | -0.906 natural log
E32W | -1.12 natural log
Q41R | -0.337 natural log
Q41M | -0.306 natural log
R30Y | -0.25 natural log
T48M | -0.258 natural log
S47V | -0.115 natural log
K34Y | -0.181 natural log

Study 2 — technique: DHFR PCA, deep sequencing; sample: yeast; with: (+)-ABA 0.0091 µM; baseline: wild-type fitted maximum; reading: higher = stronger binding
Target: ABI1, truncated, D143A, DHFR fusion (Arabidopsis thaliana)
Setting: methotrexate growth selection, single substitutions
Parent: PYL1, truncated, DHFR fusion (Arabidopsis thaliana); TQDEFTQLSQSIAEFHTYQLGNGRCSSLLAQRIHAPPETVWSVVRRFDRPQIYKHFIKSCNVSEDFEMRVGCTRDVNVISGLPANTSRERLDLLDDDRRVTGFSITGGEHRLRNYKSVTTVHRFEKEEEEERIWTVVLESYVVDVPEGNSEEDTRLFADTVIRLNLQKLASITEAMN
Change | relative binding score
L82P | 0.039%
D92K | -1.76%
I57N | -0.521%
F5T | 0.54%
S150V | 0.565%
P146E | 2.78%
Q51A | -2.1%
R132C | 42.2%
R45E | 1.08%
K54M | -3.85%
R74W | -2.07%
L112T | 0.0972%
S42M | 4.97%
T39Q | 6.87%
T154K | 3.62%
A84I | 33.1%

Study 3 — technique: RNA Bind-n-Seq; form: RNA; sample: in vitro; tested at: 20 nM; setting: 6-mer, flanks averaged, single round; with: 150 mM KCl; baseline: input library; reading: higher = stronger binding
Target: TAR DNA-binding protein 43, full length, His tag (TARDBP, Homo sapiens, UniProt Q13148, residues 1-414)
Oligonucleotide | 6-mer enrichment (R)
UUACUU | 0.587
CUUCAU | 0.548
CGUUAU | 0.583
CCCACA | 0.645
GCCUAG | 0.915
GGGAAG | 4.9
CGCCAA | 0.716
GACGUA | 0.848
CGACCC | 0.655
AGUCAG | 0.849
CCCGUU | 0.606
CCGAUU | 0.588
CUCGGG | 1.75
AGUAGU | 0.811
AUGAAC | 0.692
UGUCGA | 0.786

Study 4 — technique: aptamer microarray, sandwich; form: DNA with 2'F-ANA; sample: in vitro; tested at: 200 nM; with: Cy3 exosite-II aptamer, 400 nM; reading: higher = stronger binding; oligonucleotide: GGTTGGTGTGGTTGG
Target: Prothrombin, mature alpha-thrombin (F2, Homo sapiens, UniProt P00734)
Setting: whole 15-mer aptamer, many near background
Modification | mean fluorescence intensity
2'F-ANA at 1 6 7 9 11 12 15 | 233 a.u.
2'F-ANA at 1 2 3 4 5 7 8 9 13 | 52.9 a.u.
2'F-ANA at 1 4 7 9 10 11 13 14 | 43.4 a.u.
2'F-ANA at 1 2 3 4 6 9 12 14 15 | 84.4 a.u.
2'F-ANA at 1 2 5 11 13 15 | 58.4 a.u.
2'F-ANA at 1 2 4 5 6 8 11 13 14 | 49.3 a.u.
2'F-ANA at 2 4 5 8 9 11 14 | 84.1 a.u.
2'F-ANA at 1 3 4 6 7 9 11 13 14 15 | 60.5 a.u.
2'F-ANA at 2 4 7 10 11 12 14 15 | 67.6 a.u.
2'F-ANA at 2 3 4 6 11 13 15 | 359 a.u.
2'F-ANA at 5 6 8 10 14 | 45.9 a.u.
2'F-ANA at 2 5 6 8 9 11 12 13 | 89.1 a.u.
2'F-ANA at 1 2 5 6 8 9 10 11 12 13 14 15 | 49 a.u.
2'F-ANA at 2 3 6 8 13 14 | 374 a.u.
2'F-ANA at 4 5 7 8 10 14 | 48.8 a.u.
2'F-ANA at 4 11 12 13 14 | 113 a.u.
2'F-ANA at 1 7 9 11 | 183 a.u.
2'F-ANA at 2 9 13 14 15 | 119 a.u.

Study 5 — target: CCNA1, cyclin fold, Cln2 fusion (human); technique: yeast growth competition, sequencing; sample: yeast; setting: weak parent motif; baseline: not given; reading: higher = stronger binding
Parent: E2F8 docking peptide (human); FVPQRKLEVSTED; partner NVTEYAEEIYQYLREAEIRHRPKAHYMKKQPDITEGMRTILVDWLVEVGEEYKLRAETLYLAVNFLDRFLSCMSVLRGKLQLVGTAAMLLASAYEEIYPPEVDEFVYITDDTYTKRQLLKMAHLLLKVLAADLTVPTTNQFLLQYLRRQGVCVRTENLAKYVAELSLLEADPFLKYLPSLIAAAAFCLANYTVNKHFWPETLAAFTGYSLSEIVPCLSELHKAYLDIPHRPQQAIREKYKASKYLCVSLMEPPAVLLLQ
Change | normalised enrichment score
FVPQRKLEVSAED [T11A] | 0.261
AVPQRKLEVSTED [F1A] | 0.254
FVPQAKAEVSTED [R5A L7A] | 0.139
FVPQRKLEVSTEA [D13A] | 0.131
FVPQRKLELSTED [V9L] | -0.0206
FVAQRKLEVSTED [P3A] | 0.0556
FVPARKLEVSTED [Q4A] | 0.0706
FVPQRALEVSTED [K6A] | 0.305
FVPQRKLEFSTED [V9F] | 0.0933
FVPQKKLEVSTED [R5K] | 0.162
FVPQRKAEVSTED [L7A] | 0.434

Study 6 — technique: RNA Bind-n-Seq; form: RNA; sample: in vitro; tested at: 365 nM; baseline: no-protein control; reading: higher = stronger binding
Target: RNA binding protein fox-1 homolog 2, RRM domain, GST-SBP tag (RBFOX2, Homo sapiens, UniProt O43251-10, residues 100-194)
Setting: natural RNA segment, single round, ends assumed
Construct (chain): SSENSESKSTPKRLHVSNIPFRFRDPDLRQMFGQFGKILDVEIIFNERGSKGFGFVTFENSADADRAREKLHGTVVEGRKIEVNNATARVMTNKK
Oligonucleotide | RBNS enrichment (R)
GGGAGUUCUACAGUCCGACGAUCAGCUCACCCCUUUGGUGACUCAGAGUCCUUCUCAGAAGGAAACCCUGACUCCUGGGCCAUUUCCUAAUGGUACUGUAAGCCAAGUGGCUCGGCUUCUGCCUCUGUUUCCAUGGAAUUCUCGGGUGCCAA | 0.21
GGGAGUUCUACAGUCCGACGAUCCUACUUUGGCAGGGGAGGGGGACAAAUGGUGGUACCUACAGAGCUCUGCAUGAAGUAGGGACCCCACACUAGAUAACCCCUCUUGUAAAGUAUGAGCCCAUCUCACUGGGUGGAAUUCUCGGGUGCCAA | 5.61
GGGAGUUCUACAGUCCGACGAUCACUUCUAGAAUUACAUGGCUGCACCACUUCACCCAGCCUAUGUAGUUUUAUUUUAUAAAUGACACUGUCUUCCAGAAUUCCUUUCUUUAACAGAUUUCUUUUUCUUACUUUGGAAUUCUCGGGUGCCAA | 0.698
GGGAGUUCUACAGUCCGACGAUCUCAUCAUUUUGUAUGGCUGCAUAGUAUUCCAUGGUGUAUAUGUGCCACAUUUUCUUAAUCCAGUCUAUCAUUGUUGGACAUUUGGGUUGGUUCCAAGUCUUUGCUAUUGUUGGAAUUCUCGGGUGCCAA | 1.11
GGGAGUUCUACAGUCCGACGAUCGUCAACUGUUUACACACAAACUGCCAUGUCCCACGCCCCUUCCCUCUCCUUGUUUGCUAUGGGGGAGAUUGCUUCCCUCCCCAGAUCUUUGCUAUGUAGCUUAGAGUGACUGGAAUUCUCGGGUGCCAA | 1.7
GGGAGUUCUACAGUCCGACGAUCGGACUAAAGGACGGAGGCCGCCCCACCCCCUUCCCUUUCCUCCAAACCCCUAACUCCCUCCAGACACCCAGGGAAUACCCUCUGCCCCACAGGAUUGAAGACUGCUUGGCUGGAAUUCUCGGGUGCCAA | 0.513
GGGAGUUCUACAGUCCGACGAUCAUGUGAGGCACCGUUUUUCUCGUCGCUUGCCAAUCUGUUUUUUAAAGGAUCAGGCUCGUAGGGAGCAGGAUCAUGCCAGAAAUAGGGAUGGAAGUGCAUCCUCUGGGAAAUGGAAUUCUCGGGUGCCAA | 0.374
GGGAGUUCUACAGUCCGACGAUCUUAUGAAUGGGUGUAAUUAGGAAAUACUUCUCAUCUGACAGCUACAAAUAACUAAGUUUGGAGGUAUUUUCACUCUAUAUGAAUAAAUAUUUUUCCAUAAAAUAGUUGUGUGGAAUUCUCGGGUGCCAA | 0.398
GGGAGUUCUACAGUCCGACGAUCUUGUCGCAUGCUCUUCUUCUGUAUAGUUCUCAUCUUCCAAUUUUAUGGGAUUCAACAAAAGCCUAUUAUGCUUGUUUGCAUUAUGGUUACAAUAUUAAAAAGUGGAUUCAUGGAAUUCUCGGGUGCCAA | 4.96
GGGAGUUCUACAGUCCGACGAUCUAAUCCUAGCACUUUGAGAGGCUAAGAAGGGAGGAUCACUUGAACCCAGGAGUUCAAGACCAGCCUGAGAAACAUAGUGAGACCCUGUCUCUAAAAAAAUAAAAACUUAGUGGAAUUCUCGGGUGCCAA | 0.429
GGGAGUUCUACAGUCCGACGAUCGUAGGAAAUGAGGGCAGACAGGAAGAGAGCAACAUGUCCAGCCCAUAGACUCCACAGAGAAUGGUGCUUUGUCCAAGGAAACCUGAGUUUCUGAUUGCCCAGGAGCAGUCUGGAAUUCUCGGGUGCCAA | 1.71
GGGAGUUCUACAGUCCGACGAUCUGGAUUGGGGAAGCAGCAUCCAUUUGGGGUUCUCCUGCCCAUCUCCCAAGGGGUGACCCUGCCCCUCAAAUUCAUGGUGUCCCCACCGUCUCAAUGUGAAUAGUCUCAGAUGGAAUUCUCGGGUGCCAA | 0.362

Study 7 — technique: protein binding microarray; form: double-stranded DNA, one strand shown; sample: in vitro; tested at: not given; baseline: not given; reading: higher = stronger binding
Target: Histone acetyltransferase KAT6A, winged helix 2, GST fusion (KAT6A, Homo sapiens, UniProt Q92794, residues 85-181)
Setting: 8-mer, flanks averaged, mean of 2 arrays, mostly near background
Residues (chain): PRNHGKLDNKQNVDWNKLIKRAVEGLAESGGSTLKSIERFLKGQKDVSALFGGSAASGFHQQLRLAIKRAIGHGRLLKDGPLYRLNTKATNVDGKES
Oligonucleotide | E-score
GAAGGGAA | 0.00607
ACGGTCAG | -0.0174
CCCCAAAC | -0.0136
CGGGAATC | 0.0576
AGAGGCGC | -0.0634
GGTTAGTA | -0.00418
ATCGGAGA | 0.116
CGTTATAA | -0.00169
CGACGAGC | 0.0501
CCTAGACG | -0.0588
ACTTGACA | -0.00351
ATCGCATC | -0.0328
CGATATCC | 0.0312
ATTGAGGA | -0.0832
AGATGCTC | 0.0478
CTGCATTC | 0.0273
CACACCAG | 0.0584
ACAATTGG | -0.0566
AGGTAACA | -0.0935
AATAATAC | 0.0585
GACTTGAA | -0.114
ACCGACTG | 0.0794
GCTGCCCA | 0.0669
AGCGATAG | -0.0521

Further values, each from its own experiment
Substance | target | test | test system | setting | scale | endpoint | result
PhoQ, residues 284 288 289 292 302 303 SSLVEF | PhoP, residues 12 14 15 18 19 VHSCL (Escherichia coli, UniProt P23836) | Sort-seq, measured: YFP reporter | E. coli | PhoQ-PhoP variant library, with: 10 µM Mg2+ | baseline: high Mg2+ state, higher = stronger signaling | fold induction | 6.73

Repeated from above (study 4):
Modification | mean fluorescence intensity
2'F-ANA at 1 6 7 9 11 12 15 | 233 a.u.
2'F-ANA at 1 2 3 4 5 7 8 9 13 | 52.9 a.u.
2'F-ANA at 1 4 7 9 10 11 13 14 | 43.4 a.u.
2'F-ANA at 1 2 3 4 6 9 12 14 15 | 84.4 a.u.
2'F-ANA at 1 2 5 11 13 15 | 58.4 a.u.
2'F-ANA at 1 2 4 5 6 8 11 13 14 | 49.3 a.u.
2'F-ANA at 2 4 5 8 9 11 14 | 84.1 a.u.
2'F-ANA at 1 3 4 6 7 9 11 13 14 15 | 60.5 a.u.
2'F-ANA at 2 4 7 10 11 12 14 15 | 67.6 a.u.
2'F-ANA at 2 3 4 6 11 13 15 | 359 a.u.
